Measurements collected from several papers.
Parts stem from different laboratories: compare values within a part only. Positions count from the first letter of the parent shown.

Study 1 — technique: aptamer microarray, sandwich; molecule type: DNA with 2'F-ANA; matrix: in vitro; tested at: 200 nM; added: Cy3 exosite-II aptamer, 400 nM; direction: higher = stronger binding; quantity: mean fluorescence intensity; oligonucleotide: GGTTGGTGTGGTTGG
Target: Prothrombin, mature alpha-thrombin (F2, Homo sapiens, UniProt P00734)
Notes: whole 15-mer aptamer, many near background
2'F-ANA at 1 2 3 5 7 9 13 14 15: 44.8 a.u.
2'F-ANA at 1 2 3 6 7 8 9 10 11 12: 90.2 a.u.
2'F-ANA at 5 8 9 10 12 14: 44.4 a.u.
2'F-ANA at 2 5 8 10 12 13: 62.2 a.u.
2'F-ANA at 3 8 10 13: 593 a.u.
2'F-ANA at 2 4 5 8 13 14 15: 44 a.u.
2'F-ANA at 11 12 13 15: 732 a.u.

Study 2 — technique: protein-binding microarray; molecule type: double-stranded DNA, one strand shown; matrix: in vitro; tested at: not given; direction: higher = stronger binding; quantity: E-score
Target: Max-binding protein MNT, bHLH-zipper, MAX partner unstated (MNT, Homo sapiens, UniProt Q99583, residues 220-300)
Notes: k-mer, scored over probes, only values ≥0.25
Construct (chain): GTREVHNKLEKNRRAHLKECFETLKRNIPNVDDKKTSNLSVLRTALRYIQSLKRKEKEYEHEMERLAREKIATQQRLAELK
ATTCCCCA: 0.271
ACATGGAG: 0.349
AAGCGTGT: 0.354
ACCATGCC: 0.333
AACGCACG: 0.407

Study 3 — target: CCNA1, cyclin fold, Cln2 fusion (human); technique: yeast growth competition, sequencing; matrix: yeast; notes: weak parent motif; reference: not given; direction: higher = stronger binding; quantity: normalised enrichment score
Starting sequence: BRCA2 docking peptide (human); PSIKRNLLNEFDR
P1G: 0.595
R13L: 0.0979
L7D: 0.081
S2H: 0.269
N9G: 0.246
R5V: 0.459
L8P: -0.0743
N9M: 0.583
F11H: 0.0798

Mixed results
PhoQ, residues 284 288 289 292 302 303 AGHLVA — fold induction (PhoP, residues 12 14 15 18 19 AQALL (Escherichia coli, UniProt P23836); Sort-seq, measured: YFP reporter; E. coli; PhoQ-PhoP variant library, added: 10 µM Mg2+; reference: high Mg2+ state, higher = stronger signaling): 30.5

A few entries again (study 3):
R13L: 0.0979
L7D: 0.081
S2H: 0.269
